# Published values pooled from the literature.
# Amino acid sequences for entries named in this document (tags omitted).
# UniProt Q6PL18, whole entry: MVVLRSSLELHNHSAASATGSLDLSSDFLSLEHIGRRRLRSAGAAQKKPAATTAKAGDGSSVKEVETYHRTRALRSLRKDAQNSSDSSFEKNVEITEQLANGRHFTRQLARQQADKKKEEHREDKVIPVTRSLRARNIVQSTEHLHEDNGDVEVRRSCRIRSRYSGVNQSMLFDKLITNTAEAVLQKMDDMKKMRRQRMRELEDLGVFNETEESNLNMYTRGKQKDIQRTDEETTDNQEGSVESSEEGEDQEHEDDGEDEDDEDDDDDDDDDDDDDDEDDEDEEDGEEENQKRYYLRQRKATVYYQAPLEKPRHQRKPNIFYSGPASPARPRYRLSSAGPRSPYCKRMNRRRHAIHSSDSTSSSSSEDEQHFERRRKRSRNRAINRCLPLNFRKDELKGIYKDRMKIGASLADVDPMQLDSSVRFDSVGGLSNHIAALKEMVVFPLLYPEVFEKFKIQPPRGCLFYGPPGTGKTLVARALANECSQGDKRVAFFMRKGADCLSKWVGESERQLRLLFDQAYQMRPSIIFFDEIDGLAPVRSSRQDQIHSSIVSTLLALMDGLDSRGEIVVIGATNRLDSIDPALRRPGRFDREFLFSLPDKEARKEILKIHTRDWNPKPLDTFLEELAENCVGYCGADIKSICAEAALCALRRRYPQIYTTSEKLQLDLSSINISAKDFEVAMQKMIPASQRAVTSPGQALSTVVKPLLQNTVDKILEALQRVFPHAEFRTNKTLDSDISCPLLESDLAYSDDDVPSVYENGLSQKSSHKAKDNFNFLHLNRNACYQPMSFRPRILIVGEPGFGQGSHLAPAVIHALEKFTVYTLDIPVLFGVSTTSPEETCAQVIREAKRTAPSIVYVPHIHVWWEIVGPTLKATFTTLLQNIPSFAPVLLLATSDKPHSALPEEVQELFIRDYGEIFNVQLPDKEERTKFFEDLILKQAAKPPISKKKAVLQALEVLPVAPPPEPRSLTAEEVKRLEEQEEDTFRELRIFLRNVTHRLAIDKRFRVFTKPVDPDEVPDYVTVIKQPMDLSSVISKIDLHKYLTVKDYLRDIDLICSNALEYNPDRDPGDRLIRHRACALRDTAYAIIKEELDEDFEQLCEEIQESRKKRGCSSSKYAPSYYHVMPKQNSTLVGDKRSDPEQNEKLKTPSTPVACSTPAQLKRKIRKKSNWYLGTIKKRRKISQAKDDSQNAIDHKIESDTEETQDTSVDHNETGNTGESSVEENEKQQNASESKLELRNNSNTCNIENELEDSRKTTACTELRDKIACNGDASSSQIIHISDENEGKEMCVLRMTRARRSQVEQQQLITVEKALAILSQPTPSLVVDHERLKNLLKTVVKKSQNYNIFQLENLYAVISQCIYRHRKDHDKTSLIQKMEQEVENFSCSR
# UniProt P10636, whole entry, looked up: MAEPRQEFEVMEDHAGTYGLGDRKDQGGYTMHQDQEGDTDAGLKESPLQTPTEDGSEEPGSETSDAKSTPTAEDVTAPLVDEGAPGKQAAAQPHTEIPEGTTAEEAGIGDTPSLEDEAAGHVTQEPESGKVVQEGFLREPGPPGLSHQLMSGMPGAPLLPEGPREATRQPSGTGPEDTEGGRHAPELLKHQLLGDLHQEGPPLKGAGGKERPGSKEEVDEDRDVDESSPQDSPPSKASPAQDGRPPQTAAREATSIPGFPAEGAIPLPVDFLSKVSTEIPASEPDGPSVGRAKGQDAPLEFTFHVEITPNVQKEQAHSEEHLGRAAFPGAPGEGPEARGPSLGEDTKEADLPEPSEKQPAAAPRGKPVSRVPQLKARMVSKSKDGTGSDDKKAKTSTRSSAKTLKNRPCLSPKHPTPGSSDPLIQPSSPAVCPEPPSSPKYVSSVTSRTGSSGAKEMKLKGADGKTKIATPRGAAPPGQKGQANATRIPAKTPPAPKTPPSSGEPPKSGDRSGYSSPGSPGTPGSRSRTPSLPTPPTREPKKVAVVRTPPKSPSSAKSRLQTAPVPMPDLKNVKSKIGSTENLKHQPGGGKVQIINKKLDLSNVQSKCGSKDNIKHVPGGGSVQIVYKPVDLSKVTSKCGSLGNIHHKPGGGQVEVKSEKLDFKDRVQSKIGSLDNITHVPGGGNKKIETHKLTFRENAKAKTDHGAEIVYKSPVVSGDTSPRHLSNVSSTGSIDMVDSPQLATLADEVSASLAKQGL
# UniProt P04150, whole entry: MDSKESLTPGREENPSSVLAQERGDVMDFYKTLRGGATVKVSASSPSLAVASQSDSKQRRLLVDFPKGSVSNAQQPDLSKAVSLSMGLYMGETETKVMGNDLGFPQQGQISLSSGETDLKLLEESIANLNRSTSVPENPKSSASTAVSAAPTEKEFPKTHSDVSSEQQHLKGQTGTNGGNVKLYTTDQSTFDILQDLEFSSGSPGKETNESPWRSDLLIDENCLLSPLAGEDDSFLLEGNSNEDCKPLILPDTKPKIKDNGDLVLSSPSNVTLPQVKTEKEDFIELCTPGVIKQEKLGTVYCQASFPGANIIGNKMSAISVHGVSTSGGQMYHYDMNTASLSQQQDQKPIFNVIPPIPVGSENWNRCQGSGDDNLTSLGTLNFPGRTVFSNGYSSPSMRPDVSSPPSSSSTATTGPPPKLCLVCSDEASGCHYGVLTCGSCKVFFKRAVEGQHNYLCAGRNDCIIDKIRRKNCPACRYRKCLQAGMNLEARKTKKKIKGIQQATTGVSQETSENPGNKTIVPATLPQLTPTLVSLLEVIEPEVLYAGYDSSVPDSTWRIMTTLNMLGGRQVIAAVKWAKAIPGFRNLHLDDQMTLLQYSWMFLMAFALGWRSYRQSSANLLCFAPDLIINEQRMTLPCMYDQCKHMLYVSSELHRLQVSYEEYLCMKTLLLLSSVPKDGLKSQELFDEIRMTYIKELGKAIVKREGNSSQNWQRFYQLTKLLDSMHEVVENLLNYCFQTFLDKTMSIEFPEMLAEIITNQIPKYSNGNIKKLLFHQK
# UniProt Q12851, whole entry: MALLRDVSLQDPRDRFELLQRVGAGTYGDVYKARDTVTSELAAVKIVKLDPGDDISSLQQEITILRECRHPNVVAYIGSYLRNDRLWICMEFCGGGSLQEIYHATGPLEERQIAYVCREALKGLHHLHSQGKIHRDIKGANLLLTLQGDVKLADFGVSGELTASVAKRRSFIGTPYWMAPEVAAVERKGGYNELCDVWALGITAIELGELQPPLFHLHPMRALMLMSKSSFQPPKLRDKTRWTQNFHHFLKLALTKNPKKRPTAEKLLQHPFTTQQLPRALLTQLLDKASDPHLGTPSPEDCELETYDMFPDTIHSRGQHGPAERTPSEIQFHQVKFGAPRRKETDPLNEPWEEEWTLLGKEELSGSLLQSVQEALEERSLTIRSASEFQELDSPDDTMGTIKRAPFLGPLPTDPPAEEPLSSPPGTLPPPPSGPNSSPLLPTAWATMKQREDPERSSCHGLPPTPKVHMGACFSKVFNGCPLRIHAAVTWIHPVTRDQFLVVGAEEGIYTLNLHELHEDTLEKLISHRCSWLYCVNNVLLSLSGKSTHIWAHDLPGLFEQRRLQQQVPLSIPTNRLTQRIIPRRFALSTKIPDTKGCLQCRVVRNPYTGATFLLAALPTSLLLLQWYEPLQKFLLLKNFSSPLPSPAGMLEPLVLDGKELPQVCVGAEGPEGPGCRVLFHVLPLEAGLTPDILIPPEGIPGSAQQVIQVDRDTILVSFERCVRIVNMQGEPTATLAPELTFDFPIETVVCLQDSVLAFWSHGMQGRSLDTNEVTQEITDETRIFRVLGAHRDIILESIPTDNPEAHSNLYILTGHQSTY
# Each line is one published result; not all experiments were run side by side. Numbers after ± are the reported error.
Structure (SMILES),tested on,test,system,setting,how to read,measurement,result
CC[C@@H]1C(=O)N(C)c2cnc(Nc3ccc(C(=O)NC4CCN(C)CC4)cc3OC)nc2N1C1CCCC1,"ATAD2 (Homo sapiens, UniProt Q6PL18)",,,10 µM,,delta Tm,-0.1 ± 0.17 °C
Fc1cc(-c2ccc3c(n2)[nH]c2ccncc23)ccn1 [isotope labelled],"Microtubule-associated protein tau, paired helical filaments (MAPT, Homo sapiens, UniProt P10636)",radioligand binding,PHF tau brain homogenate,18.97 nM,higher = more binding,specific binding,11 a.u.
Cc1cc(C)c(CNC(=O)c2cc(-c3ccc(N4CCN(CCNC(=O)CC56CC7CC(CC(C7)C5)C6)CC4)nc3)cc3c2cnn3C(C)C)c(=O)[nH]1,,,"mouse Swiss albino male, plasma","i.p., 50 mg/kg single",,Cmax,2900 nM
O=C(Nc1ccc(-c2nc3ccccc3s2)cc1)C1CCN(S(=O)(=O)c2ccccc2Cl)CC1,,turbidimetry,sodium phosphate buffer,"pH 7.4, 1% DMSO",,aqueous solubility,12.8 µM
COc1cc(CC(=O)NCC(NC(=O)C(CCCNC(=O)c2cccc(I)c2)NC(=O)C(Cc2ccc(C(F)(F)P(=O)(O)O)cc2)NC(=O)c2ccc(C)c(Br)c2)C(N)=O)ccc1O (stereo not drawn),,HPLC-MS/MS,"mouse, plasma","intraperitoneal, 20 mg/kg",,Vdss/F,0.08 L
CCN(CC)C(=O)Oc1ccc(C(=O)Nc2cccc3cc[nH]c23)cc1,,nephelometry,aqueous solution,"3 h, room temperature",,solubility,70 µM
Cc1cccc(NC(=O)c2nn(Cc3cnc[nH]3)c3c2CN(C(=O)c2ccc[nH]2)CC3)c1,IDH1 R132G AML cells,"granulocytic differentiation, flow cytometry",,"3 µM, 6 to 7 days",baseline: DMSO,CD15-positive cells,1.1 ± 0.4 fold
CS(=O)(=O)c1ccc(NC(=O)CSc2nnc(-c3ccccc3F)n2-c2ccccc2)cc1,,,aqueous buffer,pH 7.4,,solubility,154 µg/mL
CCc1c(-c2ccccc2)nn2c(=O)cc(-c3cccc(C(=O)O)c3)[nH]c12,,,mouse liver microsomes,"1 µM, 30 min",,remaining compound,~100%
Cc1c(O)cc2c(c1C)O[C@](C)(CCCC(C)C)CC2,LNCaP,western blot,non-raft membrane fractions,"concentration not given, 24 h",,Akt Ser473 phosphorylation decrease,> 65%
Cc1cc(C)c(C(=O)OCC(=O)[C@H](CCCCN)NC(=O)[C@H](Cc2ccccc2)NC(=O)OCc2ccccc2)c(C)c1,,HPLC,,pH 7.4,,logD,2.08 ± 0.08
COC(=O)CC[C@@H](C)[C@@H]1CC[C@@H]2[C@@H]3CC[C@H]4C[C@@H](O)CC[C@@]4(C)[C@@H]3CC[C@]21C,"NR3C1 (Homo sapiens, UniProt P04150)","nuclear translocation, agonist, enzyme fragment complementation",,,,EC50,> 9 µM
COc1cc(OC)c(NC(=O)CSc2nnc(-c3ccccc3)n2C)cc1Cl,,,octanol/buffer,pH 11,,logD,3.22
C=C1C(=O)[C@](C)(C(=O)OC)[C@H](CCc2cn(Cc3ccc(F)cc3F)nn2)O[C@@H]1C,,"thiol reactivity, HPLC",,"1 µM, with: 5 mM N-acetylcysteine",,half-life,0.7 h
O=C(Nc1cccnn1)N1CC(Oc2ccc(-c3ccccc3F)cn2)C1,,,healthy humans,"oral, 5 to 300 mg, single dose, range of medians",,Tmax,1.5 to 2.5 h
CCN1CCN(Cc2ccc(NC(=O)c3ccc(C)c(Oc4ncnc5cc(OC)c(OC)cc45)c3)cc2C(F)(F)F)CC1,"MAP4K2 (Homo sapiens, UniProt Q12851)",KINOMEscan competition binding,,1.0 µM,,residual probe binding,0.3%
COc1ccc(N2C(=O)N(c3c(C)cccc3Cl)Cc3cnc(Nc4ccc(N5CCN(C)CC5)cc4OC)nc32)nc1,,,"bone marrow-derived dendritic cells, mouse",,,cytotoxic concentration,> 5 µM
Fc1cccc(-n2cnc3c(NCc4nc5cc(Cl)ccc5[nH]4)nc(N4CCNCC4)nc32)c1,,,DMEM with 10% FBS,,,solubility,60 µM
